Assay results pooled from the literature.
Lines come from different studies, so protocols differ. Numbers after ± are the reported error. In brackets after ≈: the same amount, converted by molar mass.
Chain of UniProt P49759 (whole entry, looked up): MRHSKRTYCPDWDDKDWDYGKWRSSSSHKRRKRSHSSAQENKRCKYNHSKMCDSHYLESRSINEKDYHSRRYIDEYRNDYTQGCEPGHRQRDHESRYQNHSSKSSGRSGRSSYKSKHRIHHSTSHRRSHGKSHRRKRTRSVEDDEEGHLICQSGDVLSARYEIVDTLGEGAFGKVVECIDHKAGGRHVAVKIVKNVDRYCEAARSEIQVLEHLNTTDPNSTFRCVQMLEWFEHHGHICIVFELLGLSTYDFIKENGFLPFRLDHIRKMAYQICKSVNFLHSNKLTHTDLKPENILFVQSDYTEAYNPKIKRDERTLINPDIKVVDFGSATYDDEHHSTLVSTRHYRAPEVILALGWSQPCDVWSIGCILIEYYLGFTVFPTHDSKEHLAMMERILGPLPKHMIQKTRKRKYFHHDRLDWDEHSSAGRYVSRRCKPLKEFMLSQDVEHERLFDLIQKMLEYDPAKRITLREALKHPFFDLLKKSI

COC(=O)N1c2ccc3c(nc(Cc4ccccc4)n3[C@@H]3CCC[C@@H](C(=O)O)C3)c2CC[C@@H]1C — IC50 (BT-474; cell growth or viability, ATP luminescence; 10 days): 1.33 µM
CC(=O)O[C@H]1OC[C@@H]2C=C([C@@]3(C)CCCC(C)(C)C3)CC[C@H]12 — IC50 (human T-lymphocyte; cell growth or viability, MTT; 48 h): 1.3 µM
CNS(=O)(=O)Nc1nccc(Cc2c(C)c3ccc(Oc4ncccc4F)cc3oc2=O)c1F — IC50 (OCI-AML-5; cell viability; 7 days): 0.0193 µM
CCOc1cncc(-c2ccc(NC(=O)C3(c4ccnc(NS(=O)(=O)C5CC5)n4)CCOCC3)nc2)n1 — IC50 (SNU-475; cell proliferation, CellTiter-Glo; 72 h): 10 µM
C[C@H](c1ccccc1)N1C(=O)C2=Nc3ccc(F)cc3CN2C1=S — IC50 (CEM/ADR5000 (P-gp overexpressing, multidrug resistant); cell viability, resazurin; 72 h): 0.472 ± 0.051 µM
C=C(C)C(=O)NCCCCOCc1cn(CCCCNC(=O)C(=C)C)nn1 — IC50 (L929; viability, alamarBlue; 3 days): > 50 µM
C=C(NC(=O)c1csc(-c2nc3c(cc2O)-c2nc(cs2)C(=O)NC(C(C)O)C(=O)NC(=C(C)OC)c2nc(cs2)C(=O)NC2c4nc(cs4)C(=O)NC(COC(=O)c4c5c6c(cccc6n4O)COC(=O)C(OC4CC(C)(O)C(N(C)C)C(C)O4)C2OC5)c2nc-3cs2)n1)C(N)=O (stereo not shown) — MIC90 (Streptococcus pneumoniae; microbial growth; PRSP; clinical isolate): 7.8 ng/mL (≈ 5.43 nM)
Cn1ncc(-c2ccc3c(=O)[nH]nc(CN)c3c2)c1-c1c(F)c(Cl)cc(OC2CC2)c1C#N — IC50 (SK-HEP1; cell viability, inhibitor, CellTiter-Glo; 120 h, baseline-subtracted): 0.11 µM
Cc1nn(-c2cccc(N)c2)c(=O)c2cnc(Nc3ccc(N4CCNCC4)cc3)nc12 — IC50 (Dual specificity protein kinase CLK1 (CLK1, Homo sapiens, UniProt P49759); kinase activity, inhibitor, SelectScreen kinase profiling): > 10 µM
CS(=O)(=O)c1sc(NC(=O)Nc2ccc(Cl)cc2)c2c1C=CCC2 — IC50 (PANC-1 NUPR1 knockout clone KO2; cell viability; 72 h): 24 µM
O=S(=O)(N[C@@H]1CCC[C@H](N2c3ccccc3Oc3ccccc32)[C@H]1O)c1ccc(OC(F)(F)F)cc1 — IC50 (T98G; cell growth or viability; 72 h): 8.4 µM
C=CS(=O)(=O)NCCCCCCCCOCc1cn(CCCCCCCCNS(=O)(=O)C=C)nn1 — IC50 (L929; cell growth or viability; 72 h): 11 µM
COc1cccc(N2C(=O)C3=Nc4ccccc4CN3C2=S)c1 — IC50 (CEM/ADR5000 (P-gp overexpressing, multidrug resistant); cell viability, resazurin; 72 h): 28.1 ± 0.972 µM
C=CC(=O)NCCCCCCOCc1cn(CCCCCCNC(=O)C=C)n[n+]1C — IC50 (L929; viability, alamarBlue; 3 days): > 50 µM
C=CC(=O)Nc1cccc(Cn2ncc3cnc(Nc4cnn(CCOC)c4)nc32)c1 — percent of control (FLT3 human; binding, KINOMEscan; 100 nM; lower = stronger binding): 12%
Cc1ncsc1-c1ccc(C(C)NC(=O)C2CC(O)CN2C(=O)C(NC(=O)CCCCCCCCCCN2CCCC(Nc3ncc(Cl)c(Nc4ccccc4S(=O)(=O)C(C)C)n3)C2)C(C)(C)C)cc1 (stereo not shown) — log2 fold change (22Rv1; RNA-seq, measured: USP2 mRNA; concentration not given; relative to: DMSO): -1.63
Nc1ncc(-c2cc(-c3cnn(CC(F)(F)F)c3)ncc2F)nc1C(=O)NC1CNCC(F)C1 (stereo not shown) — remaining binding (GRK1; KINOMEscan; 1 µM; relative to: DMSO control): 66%
C=CC(=O)NCCCCOCc1cn(CCCCNC(=O)C=C)n[n+]1C — IC50 (L929; viability, alamarBlue; 3 days): > 50 µM
CN1CCC(N[C@H]2CCc3[nH]c4c(C(N)=O)ccc(-c5ccccc5Cl)c4c3C2)CC1 — IC50 (RBE; cell growth or viability): 0.44 µM
C=CC(=O)N1CCCC(n2c(=O)c3ncccc3n(Cc3ccc(Oc4ccccc4)cc3)c2=O)C1 (stereo not shown) — IC50 (OCI-Ly10; cell growth or viability, MTT; 72 h): 5 µM
C[C@H](c1ccccc1)N1C(=O)C2=Nc3cc([N+](=O)[O-])ccc3CN2C1=S — IC50 (CEM/ADR5000 (P-gp overexpressing, multidrug resistant); cell viability, resazurin; 72 h): 0.127 ± 0.019 µM
CC(C)=CCc1cc(C(=O)/C=C/c2ccc(O)cc2)c(O)cc1O — substrate inhibition constant Ki (phase I metabolism; rat liver microsomes): 20.7 ± 3.75 µM
COC1CN([C@H]2CC[C@H]([C@@]3(C)Oc4c(Cl)cc(C(=O)NCc5c(SC)cc(C)[nH]c5=O)c(C)c4O3)CC2)C1 — log2 fold change (RNA-seq, measured: MEIOC mouse homolog; mouse, HT-1376 xenograft, whole blood; dose not given; relative to: vehicle): 2.01
CC(C)c1ccc(N(C)c2ccc3c(c2)OCC[C@H]3CNc2cnccc2C(=O)O)cc1 — IC50 (HCC38; cell growth or viability, ATP luminescence; 7 days): ≥ 10 µM
CN1CCCNC(=O)c2cccc(c2)C(=O)NCCCN(C)CCCNc2cccc3c2C(=O)c2cccc(c2C3=O)NCCC1 — log2 fold change (SAS; RNA-Seq, measured: GMPS mRNA; 1 µM, 6 h; relative to: untreated cells): -0.563

A few entries again:
CS(=O)(=O)c1sc(NC(=O)Nc2ccc(Cl)cc2)c2c1C=CCC2 — IC50 (PANC-1 NUPR1 knockout clone KO2; cell viability; 72 h): 24 µM
C=CC(=O)N1CCCC(n2c(=O)c3ncccc3n(Cc3ccc(Oc4ccccc4)cc3)c2=O)C1 (stereo not shown) — IC50 (OCI-Ly10; cell growth or viability, MTT; 72 h): 5 µM
